Experimental data pooled from the literature.
Protocols differ between the studies behind these lines.
Cell line: NCI-H460

Compound | assay | system | conditions | how to read | measurement | value
CCCCN1CCN(c2ccc3nc(-c4ccc5nc(-c6cc(OC)ccc6OC)[nH]c5c4)[nH]c3c2)CC1 | SRB |  | 10 µM, 48 h |  | growth percent | 99.6%
CCn1cc(-c2cc(Cn3ccoc3=N)cc3c2CCN([C@@H](C)c2cc(OC)ccn2)C3=O)c(C(F)(F)F)n1 | cell growth, inhibitor |  | 120 h |  | EC50 | > 30000 nM
O=C(/C=C/C=C/C=C/C1CCCCC1)NC1=C[C@@](O)(/C=C/C=C/C=C/C(=O)NC2=C(O)CCC2=O)[C@@H]2O[C@@H]2C1=O | cell growth, CellTiter-Glo |  | 78 h |  | GI50 | > 30000 nM
CCOc1ccc(-c2nc3cc(-c4nc5cc(N6CCN(C)CC6)ccc5[nH]4)ccc3[nH]2)cc1OCC | SRB |  | 10 µM, 48 h |  | growth percent | 17.2%
Cc1cc(-c2ccccc2)n(-c2nc(-c3ccc(Cl)cc3)c3c(NC(=O)c4ccccc4)nnc-3[nH]2)n1 | SRB |  | 10 µM, NCI60 single-dose screen | reference: untreated | cell growth | 98.3%
CCCCN1CCN(c2ccc3[nH]c(-c4ccc5[nH]c(-c6ccc(OCC)c(OCC)c6)nc5c4)nc3c2)CC1 | SRB |  | 10 µM, 48 h |  | growth percent | -84.3%
CC(=O)O[C@H]1C(=O)[C@@]2(C)[C@H]([C@H](OC(=O)c3ccccc3)[C@]3(O)C[C@H](OC(=O)[C@H](O)[C@@H](NC(=O)c4ccccc4)c4ccccc4)C(C)=C1C3(C)C)[C@]1(OC(C)=O)CO[C@@H]1C[C@@H]2O | sulforhodamine B | NSCLC cancer | NCI60 screen |  | TGI | 790 nM
COCCOCCOCc1n(Cc2ccc3ccccc3n2)c2ccccc2[n+]1Cc1ccc2ccccc2c1.[Br-] | NCI60 five-dose screen |  |  |  | TGI | 1560 nM
Cc1cc(C)n(C(=S)[S][Au][PH](CCCCCC[PH]([Au][S]C(=S)n2nc(C)cc2C)(c2ccccc2)c2ccccc2)(c2ccccc2)c2ccccc2)n1 | cell growth, NCI-60 screen |  | non-small cell lung cancer |  | log10 TGI | > -4
[Br-].c1ccc2cc(Cn3c[n+](Cc4ccc5ccccc5c4)c4ccccc43)ccc2c1 | NCI60 five-dose screen |  |  |  | TGI | 2910 nM
CCCC(CCC)C(=O)OCc1cn(-c2c3ccccc3nc3ccccc23)nn1 | NCI60 single-dose screen |  | 10 µM |  | growth percentage | 105%
Cc1cc(=O)[nH]n1-c1nc(-c2ccc(Cl)cc2)c2c(NC(=O)c3ccccc3)nnc-2[nH]1 | SRB |  | 10 µM, NCI60 single-dose screen | reference: untreated | cell growth | 92%
CCn1cc(-c2cc(Cn3ccnc3)cc3c2CCN([C@H](c2cc(OC)ccn2)C2CC2)C3=O)c(C(F)(F)F)n1 | cell growth, inhibitor |  | 120 h |  | EC50 | > 30000 nM
O=C(Nc1nnc2n3c(nc(-c4ccc(Cl)cc4)c1-2)SCC3=O)c1ccccc1 | SRB |  | 10 µM, NCI60 single-dose screen | reference: untreated | cell growth | 99.3%
Cc1nc(NC(=O)N2CCC[C@H]2C(N)=O)sc1-c1ccnc(C(C)(C)C(F)(F)F)c1 | growth rate inhibition, CellTiter-Glo |  | 120 h |  | IC50 | 10000 nM
COc1ccc(OC)c(-c2nc3ccc(-c4nc5ccc(N6CCN(C)CC6)cc5[nH]4)cc3[nH]2)c1 | SRB |  | 10 µM, 48 h |  | growth percent | 106%
O=C(Nc1nnc2[nH]c(=S)[nH]c(-c3ccc(Cl)cc3)c1-2)c1ccccc1 | SRB |  | 10 µM, NCI60 single-dose screen | reference: untreated | cell growth | 99.2%
O=c1ccn(Cc2cn(-c3c4ccccc4nc4ccccc34)nn2)c(=O)[nH]1 | NCI60 single-dose screen |  | 10 µM |  | growth percentage | 96.5%
CCCN1CCN(c2ccc3[nH]c(-c4ccc5[nH]c(-c6ccc(OCC)c(OCC)c6)nc5c4)nc3c2)CC1 | SRB |  | 10 µM, 48 h |  | growth percent | -80.3%
O=c1ccn(Cc2cn(-c3cc4ccccc4oc3=O)nn2)c(=O)[nH]1 | NCI60 single-dose screen |  | 10 µM |  | growth percentage | 99.8%
CN(C)C(=N)N=C(N)N | flow cytometry, refers to: surface PD-L1 |  | 10000 µM, 24 h |  | PD-L1 positive cells | 7.97%
Cc1n[nH]c2nc(-c3ccc(Cl)cc3)c3c(NC(=O)c4ccccc4)nnc-3n12 | SRB |  | 10 µM, NCI60 single-dose screen | reference: untreated | cell growth | 110%
CCCCCCCCCCCCCCCCCCOc1ccc(CC(=O)OCC[N+](C)(C)C)cc1 | SRB |  | 10 µM |  | growth inhibition | < 0%
CN1CCN(c2ccc3[nH]c(-c4ccc5[nH]c(-c6ccc(C(F)(F)F)cc6)nc5c4)nc3c2)CC1 | SRB |  | 10 µM, 48 h |  | growth percent | 30.9%
Cc1cc(=O)[nH]c(=O)n1Cc1cn(-c2cc3ccccc3oc2=O)nn1 | NCI60 single-dose screen |  | 10 µM |  | growth percentage | 98.3%

For quick reference, copied from above:
Compound | assay | system | conditions | how to read | measurement | value
CN(C)C(=N)N=C(N)N | flow cytometry, refers to: surface PD-L1 |  | 10000 µM, 24 h |  | PD-L1 positive cells | 7.97%
Cc1n[nH]c2nc(-c3ccc(Cl)cc3)c3c(NC(=O)c4ccccc4)nnc-3n12 | SRB |  | 10 µM, NCI60 single-dose screen | reference: untreated | cell growth | 110%
CCCCCCCCCCCCCCCCCCOc1ccc(CC(=O)OCC[N+](C)(C)C)cc1 | SRB |  | 10 µM |  | growth inhibition | < 0%
CN1CCN(c2ccc3[nH]c(-c4ccc5[nH]c(-c6ccc(C(F)(F)F)cc6)nc5c4)nc3c2)CC1 | SRB |  | 10 µM, 48 h |  | growth percent | 30.9%
